Measurements from different studies.
Each numbered part is a random draw from the data of one study; scales do not carry over between parts. Values joined by “and” are separate records of one study, mostly repeats; a detail may differ.
UniProt P78356, sequence (whole entry, looked up): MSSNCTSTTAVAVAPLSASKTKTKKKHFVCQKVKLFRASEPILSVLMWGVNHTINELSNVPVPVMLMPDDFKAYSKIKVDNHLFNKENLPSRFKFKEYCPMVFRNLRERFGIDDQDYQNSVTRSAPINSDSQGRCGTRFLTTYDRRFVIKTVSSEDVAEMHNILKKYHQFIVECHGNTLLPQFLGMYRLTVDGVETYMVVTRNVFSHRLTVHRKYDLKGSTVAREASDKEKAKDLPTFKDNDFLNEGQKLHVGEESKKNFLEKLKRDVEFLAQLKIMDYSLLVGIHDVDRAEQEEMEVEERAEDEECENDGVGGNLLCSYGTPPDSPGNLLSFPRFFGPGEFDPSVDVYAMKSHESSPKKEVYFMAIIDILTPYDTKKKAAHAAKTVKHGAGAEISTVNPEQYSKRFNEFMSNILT
UniProt P07949, sequence (whole entry, unmodified, looked up): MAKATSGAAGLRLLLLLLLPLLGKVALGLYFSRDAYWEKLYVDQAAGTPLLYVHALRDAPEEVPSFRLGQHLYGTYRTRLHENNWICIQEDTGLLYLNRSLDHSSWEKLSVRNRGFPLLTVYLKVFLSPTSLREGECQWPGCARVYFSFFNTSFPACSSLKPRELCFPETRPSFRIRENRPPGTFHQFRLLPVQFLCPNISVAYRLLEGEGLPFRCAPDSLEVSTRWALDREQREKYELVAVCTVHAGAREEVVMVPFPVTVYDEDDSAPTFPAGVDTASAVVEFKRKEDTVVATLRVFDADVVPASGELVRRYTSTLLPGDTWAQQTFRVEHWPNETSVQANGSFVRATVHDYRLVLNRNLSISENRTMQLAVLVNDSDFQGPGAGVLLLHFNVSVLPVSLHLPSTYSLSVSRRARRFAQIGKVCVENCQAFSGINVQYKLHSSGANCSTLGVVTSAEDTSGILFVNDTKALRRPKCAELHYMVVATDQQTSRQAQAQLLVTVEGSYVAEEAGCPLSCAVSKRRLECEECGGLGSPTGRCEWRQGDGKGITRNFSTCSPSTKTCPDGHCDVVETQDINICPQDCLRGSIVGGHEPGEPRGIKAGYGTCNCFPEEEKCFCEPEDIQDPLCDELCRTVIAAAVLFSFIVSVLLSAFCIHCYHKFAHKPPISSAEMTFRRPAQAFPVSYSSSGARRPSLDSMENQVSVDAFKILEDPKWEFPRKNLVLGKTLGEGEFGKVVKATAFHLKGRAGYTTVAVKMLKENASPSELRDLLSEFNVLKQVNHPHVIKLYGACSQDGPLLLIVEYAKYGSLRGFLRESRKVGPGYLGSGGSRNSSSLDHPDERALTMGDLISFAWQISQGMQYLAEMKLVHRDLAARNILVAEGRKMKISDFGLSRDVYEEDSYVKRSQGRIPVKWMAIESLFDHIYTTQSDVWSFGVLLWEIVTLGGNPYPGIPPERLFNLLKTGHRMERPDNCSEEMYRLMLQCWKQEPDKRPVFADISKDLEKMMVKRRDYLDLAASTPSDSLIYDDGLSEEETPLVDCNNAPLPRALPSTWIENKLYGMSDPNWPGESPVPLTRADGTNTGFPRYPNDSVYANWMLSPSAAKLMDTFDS
UniProt Q9UKE5, sequence (whole entry, looked up): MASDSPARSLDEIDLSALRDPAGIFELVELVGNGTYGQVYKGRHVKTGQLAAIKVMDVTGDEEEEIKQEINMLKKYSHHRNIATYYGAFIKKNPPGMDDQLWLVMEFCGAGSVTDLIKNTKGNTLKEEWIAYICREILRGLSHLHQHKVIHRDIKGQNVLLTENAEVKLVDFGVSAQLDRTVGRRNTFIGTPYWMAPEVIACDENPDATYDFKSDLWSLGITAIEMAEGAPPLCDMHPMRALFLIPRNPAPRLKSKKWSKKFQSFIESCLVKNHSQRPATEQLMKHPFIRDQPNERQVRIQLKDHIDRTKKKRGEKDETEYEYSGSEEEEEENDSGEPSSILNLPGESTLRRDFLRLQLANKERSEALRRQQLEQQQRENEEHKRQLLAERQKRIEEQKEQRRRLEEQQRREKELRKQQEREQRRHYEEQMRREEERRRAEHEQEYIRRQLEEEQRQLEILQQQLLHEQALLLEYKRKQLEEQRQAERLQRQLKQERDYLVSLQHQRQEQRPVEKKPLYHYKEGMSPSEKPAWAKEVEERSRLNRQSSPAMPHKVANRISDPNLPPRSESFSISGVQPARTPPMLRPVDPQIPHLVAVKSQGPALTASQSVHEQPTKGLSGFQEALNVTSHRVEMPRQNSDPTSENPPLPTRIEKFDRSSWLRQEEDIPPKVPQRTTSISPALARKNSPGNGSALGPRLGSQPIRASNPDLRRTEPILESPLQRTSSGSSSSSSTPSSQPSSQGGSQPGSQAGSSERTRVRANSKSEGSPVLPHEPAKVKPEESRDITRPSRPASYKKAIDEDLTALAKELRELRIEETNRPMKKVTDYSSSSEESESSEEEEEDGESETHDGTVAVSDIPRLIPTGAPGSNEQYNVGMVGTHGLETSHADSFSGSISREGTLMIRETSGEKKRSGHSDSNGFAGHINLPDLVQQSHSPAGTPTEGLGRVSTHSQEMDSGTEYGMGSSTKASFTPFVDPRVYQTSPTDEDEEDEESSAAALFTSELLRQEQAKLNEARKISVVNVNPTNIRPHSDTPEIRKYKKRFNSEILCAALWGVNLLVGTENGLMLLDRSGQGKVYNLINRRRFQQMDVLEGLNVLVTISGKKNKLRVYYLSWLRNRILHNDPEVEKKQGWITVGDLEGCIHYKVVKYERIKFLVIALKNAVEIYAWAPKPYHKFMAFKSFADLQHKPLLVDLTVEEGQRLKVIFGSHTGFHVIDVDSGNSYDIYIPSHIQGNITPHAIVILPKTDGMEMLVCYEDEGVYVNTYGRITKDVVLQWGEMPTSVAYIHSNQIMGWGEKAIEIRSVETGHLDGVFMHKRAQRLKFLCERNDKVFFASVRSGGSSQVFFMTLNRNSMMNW
UniProt P0C264, sequence (whole entry, looked up): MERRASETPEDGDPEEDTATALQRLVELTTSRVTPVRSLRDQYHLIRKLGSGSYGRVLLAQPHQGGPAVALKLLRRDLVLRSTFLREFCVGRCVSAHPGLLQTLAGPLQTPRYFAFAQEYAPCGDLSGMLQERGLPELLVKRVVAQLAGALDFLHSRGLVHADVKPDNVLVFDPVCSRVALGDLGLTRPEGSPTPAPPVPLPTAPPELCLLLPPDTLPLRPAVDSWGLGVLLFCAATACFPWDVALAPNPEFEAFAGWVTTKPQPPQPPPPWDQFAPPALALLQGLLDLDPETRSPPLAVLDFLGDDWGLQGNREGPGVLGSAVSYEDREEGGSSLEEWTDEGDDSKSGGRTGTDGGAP
UniProt Q02779, sequence (whole entry, looked up): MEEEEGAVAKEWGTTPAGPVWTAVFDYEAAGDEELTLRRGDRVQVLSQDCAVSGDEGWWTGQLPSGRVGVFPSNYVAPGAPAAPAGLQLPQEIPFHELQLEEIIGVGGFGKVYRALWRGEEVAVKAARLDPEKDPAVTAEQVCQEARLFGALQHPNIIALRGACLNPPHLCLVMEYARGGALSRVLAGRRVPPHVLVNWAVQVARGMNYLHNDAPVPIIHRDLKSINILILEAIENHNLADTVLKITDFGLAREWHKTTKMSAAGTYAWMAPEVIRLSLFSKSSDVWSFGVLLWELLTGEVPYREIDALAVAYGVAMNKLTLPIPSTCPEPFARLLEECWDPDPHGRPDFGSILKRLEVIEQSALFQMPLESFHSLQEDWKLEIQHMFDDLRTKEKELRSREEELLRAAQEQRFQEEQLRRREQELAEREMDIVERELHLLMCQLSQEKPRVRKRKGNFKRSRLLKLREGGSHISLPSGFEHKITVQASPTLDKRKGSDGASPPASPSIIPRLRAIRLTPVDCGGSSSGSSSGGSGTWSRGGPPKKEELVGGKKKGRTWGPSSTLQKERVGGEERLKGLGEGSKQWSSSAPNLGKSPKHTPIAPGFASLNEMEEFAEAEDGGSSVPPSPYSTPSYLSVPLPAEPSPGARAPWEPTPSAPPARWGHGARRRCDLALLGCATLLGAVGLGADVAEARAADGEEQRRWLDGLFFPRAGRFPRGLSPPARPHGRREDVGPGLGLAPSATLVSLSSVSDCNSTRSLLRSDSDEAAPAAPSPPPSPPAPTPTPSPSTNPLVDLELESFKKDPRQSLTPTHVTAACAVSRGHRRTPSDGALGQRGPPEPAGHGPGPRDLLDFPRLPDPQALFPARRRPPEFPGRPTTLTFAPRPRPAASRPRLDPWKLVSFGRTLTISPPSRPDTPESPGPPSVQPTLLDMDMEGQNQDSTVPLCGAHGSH

Study 1 — read-out: cell-free assay; technique: competition with immobilised ligand; concentration: 1 µM
SMILES: O=C(NCc1ncc(C(F)(F)F)cc1Cl)c1ccc2c(c1)C1(CCS(=O)(=O)CC1)[C@H](C1CC1)N2S(=O)(=O)c1ccc(F)cc1
TNIK (Homo sapiens, UniProt Q9UKE5) — remaining binding: 100%.
It gave 89% for remaining binding (PIP4K2B (Homo sapiens, UniProt P78356)).
The remaining binding was 100% (SBK3 (Homo sapiens, UniProt P0C264)).
The remaining binding was 92% (EGFR (Homo sapiens, UniProt P00533, G719S)).
NEK11 (Homo sapiens, UniProt Q8NG66) — remaining binding: 100%.
The remaining binding was 100% (MAP3K10 (Homo sapiens, UniProt Q02779)).
MAST1 (Homo sapiens, UniProt Q9Y2H9) — remaining binding: 54%.
SRMS (Homo sapiens, UniProt Q9H3Y6) — remaining binding: 71%.
For PRKACA (Homo sapiens, UniProt P17612): remaining binding read 86%.
It gave 63% for remaining binding (MAP3K1 (Homo sapiens, UniProt Q13233)).
It gave 100% for remaining binding (KIT (Homo sapiens, UniProt P10721, T670I/V559D)).
RET (Homo sapiens, UniProt P07949, V804L) — remaining binding: 92%.
It gave 88% for remaining binding (MAPK10 (Homo sapiens, UniProt P53779)).
It gave 89% for remaining binding (PIK3CA (Homo sapiens, UniProt P42336, E545A)).

Study 2 — read-out: enzyme activity; mode: inhibitor; concentration: 0.5 µM; relative to: control
Target: Tyrosine-protein kinase Yes (YES1, Homo sapiens, UniProt P07947)
UniProt P07947, sequence (whole entry, looked up): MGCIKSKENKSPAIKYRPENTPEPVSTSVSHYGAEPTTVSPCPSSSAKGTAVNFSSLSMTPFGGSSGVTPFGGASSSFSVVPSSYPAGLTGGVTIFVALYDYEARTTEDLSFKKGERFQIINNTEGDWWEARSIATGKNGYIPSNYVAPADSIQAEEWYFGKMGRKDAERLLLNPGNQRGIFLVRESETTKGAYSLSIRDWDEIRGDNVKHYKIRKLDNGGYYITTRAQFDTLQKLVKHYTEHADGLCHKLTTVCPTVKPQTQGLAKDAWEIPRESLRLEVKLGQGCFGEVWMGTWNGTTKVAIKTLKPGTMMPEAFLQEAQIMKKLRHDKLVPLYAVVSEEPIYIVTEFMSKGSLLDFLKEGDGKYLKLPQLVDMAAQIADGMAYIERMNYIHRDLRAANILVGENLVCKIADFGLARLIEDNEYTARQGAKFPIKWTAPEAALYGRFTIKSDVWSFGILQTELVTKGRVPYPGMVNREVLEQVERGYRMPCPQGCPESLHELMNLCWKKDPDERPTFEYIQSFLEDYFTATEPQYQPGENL
For `c1ccc(-c2cnc(Nc3ccc(OCCN4CCCC4)cc3)s2)cc1`, the remaining activity was 42.1%.
With `Ic1cccc(CSc2nnc(-c3ccncc3)o2)c1` the remaining activity was 95.7%.
With `CCN(CC)C(=O)c1ccc(Nc2nc(OCC3CCCCC3)c3[nH]cnc3n2)cc1` the remaining activity was 15.4%.
`COc1cc2c(cc1OC)-c1[nH]nc(Nc3cccc(F)c3)c1C2` gave a remaining activity of 61.3%.
For `Nc1cccc(-c2cc3c(Oc4cccc(O)c4)ncnc3[nH]2)c1`, the remaining activity was 6.05%.
For `N#C/C(=C\c1ccc(O)c(O)c1)C(=O)NCc1ccccc1`, the remaining activity was 103%.
The remaining activity of `C[C@@H]1CCN(C(=O)CC#N)C[C@@H]1N(C)c1ncnc2[nH]ccc12` is reported as 87.1%.
`Cc1cc2ncc(-c3ccccc3)nc2cc1C` gave a remaining activity of 102%.
With `COc1cc2ncnc(Nc3cccc(Cl)c3)c2cc1OC` the remaining activity was 59.9%.
`O=C(Nc1cccc(Nc2nccc(Nc3cccc(C(F)(F)F)c3)n2)c1)C1CC1` has a remaining activity of 78.9%.
With `CCOc1nc(NC(=O)Cc2cc(OC)ccc2OC)cc(N)c1C#N` the remaining activity was 99.2%.
`Cc1nc2cc3nc(-c4cccs4)cnc3cc2n1C` has a remaining activity of 66.9%.

Study 3 — organism: Sarcocystis neurona; read-out: parasite growth; concentration: 10 µM
For `OC[C@H]1O[C@@H](Oc2cc(O)cc(/C=C/c3ccc(O)cc3)c2)[C@H](O)[C@@H](O)[C@@H]1O`, the inhibition was -21.1%.
`CN(CCCN1c2ccccc2CCc2ccccc21)CC(=O)c1ccc(Cl)cc1` gave an inhibition of 4.4%.
The inhibition of `CN1CCC(=C2c3ccccc3C=Cc3ccccc32)CC1` is reported as 11.9%.
`CC(=O)SCC(Cc1ccccc1)C(=O)NCC(=O)OCc1ccccc1` (stereo not shown) gave an inhibition of -33.6%.
`CC(C)NCC(O)c1cc(O)cc(O)c1` (stereo not shown) gave an inhibition of -23%.
`N#Cc1ccc(C(c2ccc(C#N)cc2)n2cncn2)cc1` has an inhibition of -27.7%.
`Cc1nccn1CC1CCc2c(c3ccccc3n2C)C1=O.Cl` (stereo not shown) has an inhibition of -20.1%.
`OC(CCN1CCCC1)(c1ccccc1)C1CCCCC1` (stereo not shown) gave an inhibition of 7.5%.
With `CC(=O)O[C@@]12CO[C@@H]1C[C@H](O)[C@@]1(C)C(=O)[C@H](O)C3=C(C)[C@@H](OC(=O)[C@H](O)[C@@H](NC(=O)OC(C)(C)C)c4ccccc4)C[C@@](O)([C@@H](OC(=O)c4ccccc4)[C@H]21)C3(C)C` the inhibition was 52.4%.

Study 4 — read-out: binding; mode: competitor; technique: NanoBRET; cell line: HEK293
Structure (SMILES): CC(C)C(=O)N1CCN(c2nc(OC[C@@H]3CCCN3C)nc3c2CCN(c2cccc4cccc(Cl)c24)C3)C[C@@H]1CC#N
KRAS G13D: GTPase KRas (KRAS, Homo sapiens, UniProt P01116, G13D)
KRAS Q61R: GTPase KRas (KRAS, Homo sapiens, UniProt P01116, Q61R)
It gave 87.3% and 98.8% and 103% for normalized BRET (GTPase KRas (KRAS, Homo sapiens, UniProt P01116, G12D); 137 nM).
For KRAS G13D; 412 nM: normalized BRET read 96.4% and 105% and 94.4%.
The normalized BRET was 94.5% and 103% and 96.8% (KRAS G13D; 137 nM).
For KRAS G13D; 1.69 nM: normalized BRET read 104% and 99.3% and 101%.
It gave 107% and 94.6% and 96.8% for normalized BRET (KRAS G13D; 45.7 nM).
The normalized BRET was 98.2% and 98.6% and 109% (KRAS G13D; 5.08 nM).
For KRAS Q61R; 15.2 nM: normalized BRET read 108% and 87.2% and 99.9%.
It gave 103% and 92% and 106% for normalized BRET (KRAS Q61R; 137 nM).

Repeated from above (study 4):
For KRAS G13D; 1.69 nM: normalized BRET read 104% and 99.3% and 101%.
It gave 103% and 92% and 106% for normalized BRET (KRAS Q61R; 137 nM).
It gave 107% and 94.6% and 96.8% for normalized BRET (KRAS G13D; 45.7 nM).
For KRAS G13D; 412 nM: normalized BRET read 96.4% and 105% and 94.4%.
For KRAS Q61R; 15.2 nM: normalized BRET read 108% and 87.2% and 99.9%.
The normalized BRET was 98.2% and 98.6% and 109% (KRAS G13D; 5.08 nM).
The normalized BRET was 94.5% and 103% and 96.8% (KRAS G13D; 137 nM).
